# Experimental data from different studies.
# Each numbered part is a random draw from the data of one study; scales do not carry over between parts. “And” joins repeats or separate records; there may be more than shown.

# Study 1
# Target: Serine/threonine-protein kinase 38 (STK38, Homo sapiens, UniProt Q15208)
# Sequence of UniProt Q15208 (whole entry, looked up): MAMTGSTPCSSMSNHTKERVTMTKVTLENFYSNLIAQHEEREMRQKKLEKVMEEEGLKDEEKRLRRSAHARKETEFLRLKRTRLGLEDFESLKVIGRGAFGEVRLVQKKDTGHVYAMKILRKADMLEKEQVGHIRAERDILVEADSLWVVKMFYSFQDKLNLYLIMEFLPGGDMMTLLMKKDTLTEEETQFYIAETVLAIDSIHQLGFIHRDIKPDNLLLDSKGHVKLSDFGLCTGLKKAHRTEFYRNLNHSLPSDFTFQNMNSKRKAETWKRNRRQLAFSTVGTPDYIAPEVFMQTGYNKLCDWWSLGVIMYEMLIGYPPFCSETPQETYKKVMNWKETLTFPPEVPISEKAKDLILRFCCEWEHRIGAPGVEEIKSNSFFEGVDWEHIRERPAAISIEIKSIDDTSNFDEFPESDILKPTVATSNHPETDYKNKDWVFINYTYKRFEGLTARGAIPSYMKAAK
# Observed: enzyme activity
# Mode: inhibitor
# Tested at: 0.5 µM
# Baseline: control
Structure (SMILES),remaining activity [%]
CCN(CC)CCNC(=O)c1c(C)[nH]c(/C=C2\C(=O)Nc3ccc(F)cc32)c1C,93.8
COc1cc2c(cc1OC)-c1[nH]nc(Nc3cccc(F)c3)c1C2,113
O=C1C(Cl)=C(N2C(=O)CCC2=O)C(=O)c2ccccc21,102
CCN(CC)CCNC(=O)c1c(C)[nH]c(/C=C2\C(=O)Nc3ccc(Cl)cc32)c1C,95.8
CN(C)C[C@H]1CCn2c(c(C3=C(c4cn(C)c5ccccc45)C(=O)NC3=O)c3ccccc32)C1,96.7
c1ccc(-c2[nH]ncc2-c2ccnc3ccccc23)nc1,111
Cc1cn(-c2cc(NC(=O)c3ccc(C)c(Nc4nccc(-c5cccnc5)n4)c3)cc(C(F)(F)F)c2)cn1,98
COc1cc2ncnc(Nc3cccc(Cl)c3)c2cc1OC,104
CCOc1nc(NC(=O)Cc2cc(OC)ccc2OC)cc(N)c1C#N,102
CN([C@@H](Cc1ccc(OS(=O)(=O)c2cccc3cnccc23)cc1)C(=O)N1CCN(c2ccccc2)CC1)S(=O)(=O)c1cccc2cnccc12,97.2
Cn1nc2c3c(cccc31)C(=O)c1ccccc1-2,98.5
C[C@@H]1CCN(C(=O)CC#N)C[C@@H]1N(C)c1ncnc2[nH]ccc12,95.7
N#C/C(=C\c1ccc(O)c(O)c1)C(=O)NCc1ccccc1,99.1
N#Cc1c(NC(=O)c2cccc3ccccc23)sc2c1CCCC2,97.7
Cc1cc2ncc(-c3ccccc3)nc2cc1C,94.7

# Study 2
# Target: 5-hydroxytryptamine receptor 2B (HTR2B, Homo sapiens, UniProt P41595)
# Sequence of UniProt P41595 (whole entry, looked up): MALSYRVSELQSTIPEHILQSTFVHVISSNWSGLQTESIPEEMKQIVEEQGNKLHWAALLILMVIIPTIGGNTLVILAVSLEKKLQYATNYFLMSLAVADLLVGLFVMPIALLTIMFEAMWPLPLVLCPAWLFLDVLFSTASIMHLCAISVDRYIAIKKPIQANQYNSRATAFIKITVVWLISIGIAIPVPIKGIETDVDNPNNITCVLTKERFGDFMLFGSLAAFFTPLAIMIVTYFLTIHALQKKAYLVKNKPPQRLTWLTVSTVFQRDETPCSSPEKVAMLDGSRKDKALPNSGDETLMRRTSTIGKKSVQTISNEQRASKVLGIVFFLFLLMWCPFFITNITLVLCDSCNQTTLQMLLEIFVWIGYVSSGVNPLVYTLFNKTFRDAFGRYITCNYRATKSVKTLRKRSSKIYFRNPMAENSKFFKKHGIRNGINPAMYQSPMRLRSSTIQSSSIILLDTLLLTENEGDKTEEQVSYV
# Observed: ligand displacement
# Tested at: 10 µM
Structure (SMILES),inhibition [%]
COc1cc(C(=O)O)ncc1C#Cc1ccccc1NS(=O)(=O)c1cccc2c(N(C)C)ccnc12,34.9
CN(C)C(=O)Cn1cc(-c2nc([C@@](C)(c3ccc(-c4cnc(N)nc4)cc3)C3CC3)no2)cn1,-5.4
C[C@H](c1ccnc(Nc2nc3ccc(-c4cc(N(C)C)ncn4)cc3[nH]2)c1)N1CCN(C(=O)CC(F)(F)F)CC1,60
CC[C@H](CC(=O)O)n1c(=O)c2ncccc2n(Cc2cn(C)c3cc(C)cc(C)c23)c1=O,5.53
C[C@@H](c1cccc(C#N)c1)n1cc(Cl)cc(C(N)=O)c1=N,3.93
CC(=O)Nc1nc(CN2CCC[C@H](Cc3cc(C)nc(C)c3)C2)cs1,17.9
Nc1nc(NCc2ccccc2)nc(-c2ccccc2CO)n1,81
CN1C(=O)[C@@H](N2CCc3cn(Cc4ccccc4)nc3C2=O)COc2ccccc21,12
CCC(=NO)C(C)=Cc1ccc(F)c(C)c1,43.8
C[C@H](c1ccc(F)cc1)N(Cc1cccc(C(=O)O)c1)C(=O)c1cnc2ccccc2c1,0.7
COc1cccc(NC(=O)c2nc3scc(CN(C)Cc4ccccc4)c3c(=O)[nH]2)c1,51
CN(c1ccnc(CNc2nc(Nc3ccc4c(c3)CC(=O)N4)ncc2C(F)(F)F)n1)S(C)(=O)=O,13.5
CS(=O)(=O)NCC[C@H](NC(=O)c1cncc2c1cnn2-c1ccc(F)cc1)c1ccnc(S(C)(=O)=O)c1,-5.9
c1ccc(C2CCN(c3cnc4c(N5CCOCC5)nccn34)CC2)cc1,17.7

# Study 3
# Cell line: A-375
# Tested at: 100 µM
# Time: 18 h
Structure (SMILES),viability
CC(C)n1c(/C=C/[C@H](O)C[C@H](O)CC(=O)O)c(-c2ccc(F)cc2)c2ccccc21 (racemic),103%
COc1cc([C@@H]2c3cc4c(cc3[C@@H](O[C@@H]3O[C@@H]5CO[C@@H](c6cccs6)O[C@H]5[C@H](O)[C@H]3O)[C@H]3COC(=O)[C@H]23)OCO4)cc(OC)c1O,18.6%
NC[C@H](O)c1ccc(O)c(O)c1,131% and 133%
CC(c1cc2ccccc2s1)N(O)C(N)=O (centres unmarked),105%
Nc1cccc2c1C(=O)N(C1CCC(=O)NC1=O)C2=O (centres unmarked),108%
CCCCc1ncc(/C=C(\Cc2cccs2)C(=O)O)n1Cc1ccc(C(=O)O)cc1,88.9%
COc1cc2c(cc1O)[C@@H](Cc1ccc(O)c(Oc3ccc(C[C@@H]4c5cc(OC)c(OC)cc5CCN4C)cc3)c1)N(C)CC2,16.6%
CCN1CCN(c2cc(-c3ccc(F)cc3)c3c(n2)CCCCCC3)CC1,52.9%

# Mixed results
SMILES,assay,test system,conditions,scale,measurement,result
CC(=O)N[C@@H](Cc1c[nH]c2ccccc12)C(=O)N[C@@H](CCC(=O)C=[N+]=[N-])C(=O)OC(C)C,UPLC-MS/MS,"EL4 tumor, C57BL/6 CES1-/- mice, tumor","subcutaneous, 0.3 mg/kg DON equivalent daily, 5 days",higher = more metabolite,thiamin monophosphate level,731000 a.u. and 1.22e+06 a.u. and 906000 a.u. and 1.1e+06 a.u. and 1.02e+06 a.u. and 1.17e+06 a.u.

# Some of these lines once more (study 1):
Structure (SMILES),remaining activity [%]
CCOc1nc(NC(=O)Cc2cc(OC)ccc2OC)cc(N)c1C#N,102
CN(C)C[C@H]1CCn2c(c(C3=C(c4cn(C)c5ccccc45)C(=O)NC3=O)c3ccccc32)C1,96.7
N#Cc1c(NC(=O)c2cccc3ccccc23)sc2c1CCCC2,97.7
